Results of several laboratories.
Lines come from different studies, so protocols differ.
SRPK2: SRSF protein kinase 2 (SRPK2, Homo sapiens, UniProt P78362)
Chain of UniProt P78362 (whole entry, looked up): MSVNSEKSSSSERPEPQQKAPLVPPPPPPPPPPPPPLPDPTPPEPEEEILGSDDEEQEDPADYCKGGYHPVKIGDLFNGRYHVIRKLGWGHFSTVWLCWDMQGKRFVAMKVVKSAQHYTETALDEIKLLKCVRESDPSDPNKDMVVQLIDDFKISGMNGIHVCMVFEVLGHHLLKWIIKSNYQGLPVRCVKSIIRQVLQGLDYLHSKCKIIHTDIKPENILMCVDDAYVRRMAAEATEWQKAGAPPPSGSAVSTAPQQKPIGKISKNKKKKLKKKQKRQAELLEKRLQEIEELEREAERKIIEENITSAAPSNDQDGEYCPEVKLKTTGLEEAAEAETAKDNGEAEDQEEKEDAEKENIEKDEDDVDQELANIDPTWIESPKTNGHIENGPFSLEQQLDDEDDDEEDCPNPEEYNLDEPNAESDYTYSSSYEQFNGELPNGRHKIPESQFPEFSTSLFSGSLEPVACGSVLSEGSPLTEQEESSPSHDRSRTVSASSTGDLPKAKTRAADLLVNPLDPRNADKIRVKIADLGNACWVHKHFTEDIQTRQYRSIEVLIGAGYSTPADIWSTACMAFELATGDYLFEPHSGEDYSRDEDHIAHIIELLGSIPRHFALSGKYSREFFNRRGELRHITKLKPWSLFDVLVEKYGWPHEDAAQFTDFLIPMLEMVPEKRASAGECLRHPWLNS
NEK6: Serine/threonine-protein kinase Nek6 (NEK6, Homo sapiens, UniProt Q9HC98)
Chain of UniProt Q9HC98 (whole entry, looked up): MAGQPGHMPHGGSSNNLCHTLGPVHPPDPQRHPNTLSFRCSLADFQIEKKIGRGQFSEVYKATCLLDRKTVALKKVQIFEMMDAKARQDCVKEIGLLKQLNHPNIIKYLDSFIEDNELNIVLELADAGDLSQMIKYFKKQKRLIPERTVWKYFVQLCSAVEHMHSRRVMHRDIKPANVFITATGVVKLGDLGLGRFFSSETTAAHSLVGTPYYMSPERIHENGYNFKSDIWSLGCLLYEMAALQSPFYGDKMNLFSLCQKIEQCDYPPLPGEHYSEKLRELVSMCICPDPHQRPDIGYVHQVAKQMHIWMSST
Chain of UniProt P16591 (whole entry, looked up): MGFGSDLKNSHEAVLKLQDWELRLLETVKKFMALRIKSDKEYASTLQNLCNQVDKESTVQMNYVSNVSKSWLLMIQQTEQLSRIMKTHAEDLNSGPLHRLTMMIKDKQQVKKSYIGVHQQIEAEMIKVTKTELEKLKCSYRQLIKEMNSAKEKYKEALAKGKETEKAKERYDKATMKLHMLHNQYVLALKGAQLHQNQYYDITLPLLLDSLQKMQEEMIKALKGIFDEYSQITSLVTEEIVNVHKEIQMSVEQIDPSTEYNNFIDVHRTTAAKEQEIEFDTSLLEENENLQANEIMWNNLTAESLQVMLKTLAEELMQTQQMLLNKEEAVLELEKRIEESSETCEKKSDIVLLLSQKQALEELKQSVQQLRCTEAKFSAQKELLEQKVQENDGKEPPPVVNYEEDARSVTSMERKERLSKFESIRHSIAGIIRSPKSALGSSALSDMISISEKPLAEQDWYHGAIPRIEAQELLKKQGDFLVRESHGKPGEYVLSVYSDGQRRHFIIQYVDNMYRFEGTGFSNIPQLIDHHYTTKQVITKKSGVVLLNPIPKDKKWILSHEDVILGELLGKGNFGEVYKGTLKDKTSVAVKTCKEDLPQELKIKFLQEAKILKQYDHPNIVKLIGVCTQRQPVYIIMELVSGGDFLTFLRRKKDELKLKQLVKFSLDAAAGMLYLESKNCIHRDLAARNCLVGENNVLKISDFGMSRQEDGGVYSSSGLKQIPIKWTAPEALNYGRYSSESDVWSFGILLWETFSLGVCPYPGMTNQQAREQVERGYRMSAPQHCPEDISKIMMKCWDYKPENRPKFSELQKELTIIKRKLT
Chain of UniProt O43293 (whole entry, looked up): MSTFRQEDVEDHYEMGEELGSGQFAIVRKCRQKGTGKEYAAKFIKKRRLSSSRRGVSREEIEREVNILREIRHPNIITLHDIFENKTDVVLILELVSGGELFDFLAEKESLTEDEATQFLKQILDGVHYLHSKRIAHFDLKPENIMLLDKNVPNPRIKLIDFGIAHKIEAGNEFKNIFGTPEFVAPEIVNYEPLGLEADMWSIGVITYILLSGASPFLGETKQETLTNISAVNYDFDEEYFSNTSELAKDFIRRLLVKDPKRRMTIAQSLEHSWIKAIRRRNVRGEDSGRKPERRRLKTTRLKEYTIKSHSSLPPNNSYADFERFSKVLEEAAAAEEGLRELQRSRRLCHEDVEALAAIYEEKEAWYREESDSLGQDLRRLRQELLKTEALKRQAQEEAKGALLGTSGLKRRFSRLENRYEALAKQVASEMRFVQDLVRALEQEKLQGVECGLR
Chain of UniProt Q8NE63 (whole entry, looked up): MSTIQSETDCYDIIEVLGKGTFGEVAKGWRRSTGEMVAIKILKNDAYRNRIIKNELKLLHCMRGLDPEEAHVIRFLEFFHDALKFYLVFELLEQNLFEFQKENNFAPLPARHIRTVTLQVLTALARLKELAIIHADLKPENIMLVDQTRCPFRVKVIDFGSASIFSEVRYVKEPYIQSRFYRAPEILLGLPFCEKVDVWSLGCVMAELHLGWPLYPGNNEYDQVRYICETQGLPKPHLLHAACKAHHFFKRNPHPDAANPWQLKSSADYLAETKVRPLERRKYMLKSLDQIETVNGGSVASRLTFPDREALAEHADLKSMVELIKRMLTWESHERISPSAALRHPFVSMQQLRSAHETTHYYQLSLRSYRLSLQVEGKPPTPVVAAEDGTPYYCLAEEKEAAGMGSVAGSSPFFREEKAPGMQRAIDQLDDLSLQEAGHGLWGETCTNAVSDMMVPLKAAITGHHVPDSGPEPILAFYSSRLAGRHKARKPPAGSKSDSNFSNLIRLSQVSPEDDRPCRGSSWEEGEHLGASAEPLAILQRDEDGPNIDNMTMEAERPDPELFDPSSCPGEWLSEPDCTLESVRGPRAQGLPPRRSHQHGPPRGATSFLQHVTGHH
Chain of UniProt P05164 (whole entry, looked up): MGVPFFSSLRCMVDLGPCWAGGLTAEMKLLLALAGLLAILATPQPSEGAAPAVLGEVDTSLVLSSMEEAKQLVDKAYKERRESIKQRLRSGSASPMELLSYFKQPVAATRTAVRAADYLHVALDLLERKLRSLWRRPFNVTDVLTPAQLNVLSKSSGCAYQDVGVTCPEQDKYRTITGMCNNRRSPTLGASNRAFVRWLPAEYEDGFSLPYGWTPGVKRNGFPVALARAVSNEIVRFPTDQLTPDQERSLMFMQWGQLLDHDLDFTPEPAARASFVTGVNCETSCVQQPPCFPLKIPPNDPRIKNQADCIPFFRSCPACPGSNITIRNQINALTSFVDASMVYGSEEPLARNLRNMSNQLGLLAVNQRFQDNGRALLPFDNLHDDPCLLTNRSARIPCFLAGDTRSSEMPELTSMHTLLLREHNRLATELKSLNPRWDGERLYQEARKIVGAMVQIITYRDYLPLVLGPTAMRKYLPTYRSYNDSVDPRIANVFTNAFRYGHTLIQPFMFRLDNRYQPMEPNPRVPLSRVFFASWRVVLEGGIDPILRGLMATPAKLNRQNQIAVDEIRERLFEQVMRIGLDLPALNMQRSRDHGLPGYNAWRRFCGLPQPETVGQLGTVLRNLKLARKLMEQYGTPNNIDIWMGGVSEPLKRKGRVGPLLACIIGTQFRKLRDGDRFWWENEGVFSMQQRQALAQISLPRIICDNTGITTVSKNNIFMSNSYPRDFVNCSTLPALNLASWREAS
Chain of UniProt P06797 (whole entry, looked up): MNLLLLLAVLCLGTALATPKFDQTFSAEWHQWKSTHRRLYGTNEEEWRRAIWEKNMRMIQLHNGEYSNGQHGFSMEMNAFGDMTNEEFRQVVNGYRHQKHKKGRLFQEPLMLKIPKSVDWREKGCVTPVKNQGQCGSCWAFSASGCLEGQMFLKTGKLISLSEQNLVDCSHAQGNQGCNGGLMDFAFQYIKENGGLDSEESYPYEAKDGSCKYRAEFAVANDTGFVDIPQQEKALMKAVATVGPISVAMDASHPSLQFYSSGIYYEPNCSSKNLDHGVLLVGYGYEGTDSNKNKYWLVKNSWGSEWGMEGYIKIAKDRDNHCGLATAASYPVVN
Chain of UniProt Q13554 (whole entry, looked up): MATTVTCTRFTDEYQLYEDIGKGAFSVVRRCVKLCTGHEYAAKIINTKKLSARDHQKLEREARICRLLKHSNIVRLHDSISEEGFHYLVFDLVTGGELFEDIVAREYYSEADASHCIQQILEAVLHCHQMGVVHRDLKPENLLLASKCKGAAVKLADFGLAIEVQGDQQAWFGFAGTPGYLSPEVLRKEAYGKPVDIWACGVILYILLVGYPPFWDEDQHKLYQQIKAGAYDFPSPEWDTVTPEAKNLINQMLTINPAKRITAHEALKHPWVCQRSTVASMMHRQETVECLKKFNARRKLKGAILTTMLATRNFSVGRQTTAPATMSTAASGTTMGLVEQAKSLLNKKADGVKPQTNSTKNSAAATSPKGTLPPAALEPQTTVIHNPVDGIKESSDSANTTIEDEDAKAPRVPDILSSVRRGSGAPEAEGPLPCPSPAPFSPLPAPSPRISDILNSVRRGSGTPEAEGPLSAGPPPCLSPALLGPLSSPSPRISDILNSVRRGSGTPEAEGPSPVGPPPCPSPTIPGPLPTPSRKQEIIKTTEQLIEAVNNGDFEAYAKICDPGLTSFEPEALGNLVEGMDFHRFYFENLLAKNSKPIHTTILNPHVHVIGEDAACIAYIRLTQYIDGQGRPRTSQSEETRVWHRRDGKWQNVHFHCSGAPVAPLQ

| Compound | target | assay | setting | scale | remaining activity |
| --- | --- | --- | --- | --- | --- |
| O=C(NC1CCC1)c1ccc2nc(-c3cccc(NS(=O)(=O)NCCN4CCCCC4)c3)cn2c1 | SRPK2 | enzyme activity | 10 µM |  | 98% |
| NC/C(=C\F)COc1cccc(Cn2c(=S)[nH]c(=O)c3[nH]cnc32)c1 | Myeloperoxidase (MPO, Homo sapiens, UniProt P05164) | chlorination activity, iodide-catalysed TMB HOCl production | 10 µM | baseline: control | 0.566% |
| Cc1cccc(C)c1C(=O)OCC(=O)[C@H](CCCCN)NC(=O)[C@H](CCCNC(=N)N)NC(=O)OCc1ccccc1 | Procathepsin L (Mus musculus, UniProt P06797) | inhibitor | 0.1 µM, added: AMC fluorogenic substrate | baseline: untreated | 95% |
| Cc1cc(Nc2cc(N3CCN(C)CC3)nc(Sc3ccc(NC(=O)C4CC4)cc3)n2)[nH]n1 | CAMK2B (Homo sapiens, UniProt Q13554) | kinase activity, KinaseProfiler | 0.03 µM, species human | baseline: control | 107% |
| COc1cc(Nc2ncc3c(n2)-c2ccc(Cl)cc2C(c2c(F)cccc2OC)=NC3)ccc1C(=O)O | MAPK14 | kinase activity | 1 µM |  | 109% |
| O=C1NC(=O)/C(=C/c2ccc(-c3ccc(F)cc3O)o2)S1 | NEK6 | enzyme activity | 10 µM |  | 94% |
| COc1cc(-c2cncc3c2CN(C)Cc2cc(N4CCNCC4)ccc2-3)cc(OC)c1OC | NEK6 | kinase activity | 1 µM, human enzyme, added: ATP 10 µM | baseline: DMSO control | 109% |
| CNc1ncc2c(/C=C/C(=O)N3CCC(OC)CC3)nn(Cc3cccc(C(F)(F)F)c3)c2n1 | DAPK3 (Homo sapiens, UniProt O43293) | kinase activity, inhibitor | 1 µM | baseline: untreated control | 97% |
| O=C(O)c1ccc(Nc2ncc3c(n2)-c2ccc(Cl)cc2C(c2c(F)cccc2F)=NC3)cc1 | Axl(h) | kinase activity | 1 µM |  | 41% |
| C=CC(=O)N1CCC[C@@H](n2nc(-c3ccc(Oc4ccccc4)cc3)c3c(N)ncnc32)C1 | FER (Homo sapiens, UniProt P16591) |  | 0.1 µM |  | 97.1% |
| COc1cc(F)ccc1-c1ncnc(Nc2cccc(C[S@](C)(=N)=O)c2)n1 | SRPK2 | kinase activity | 10 µM, added: 10 µM ATP |  | 102% |
| COc1cc(N2CCN(C)CC2)ccc1Nc1nc(N)n(C(=S)NCc2c(Cl)cccc2Cl)n1 | HIPK4 (Homo sapiens, UniProt Q8NE63) | enzyme activity | 10 µM | baseline: control | 0.05% |
